Assay results collected from several papers.
Each line is one published result; not all experiments were run side by side. ± gives the spread as reported.
PTPN1: Tyrosine-protein phosphatase non-receptor type 1 (PTPN1, Homo sapiens, UniProt P18031)
OGA: Protein O-GlcNAcase (OGA, Homo sapiens, UniProt O60502)

Amino acid sequences for entries named in this document (tags omitted). Residues count along the entry.
UniProt P18031, 1-321 limits assumed: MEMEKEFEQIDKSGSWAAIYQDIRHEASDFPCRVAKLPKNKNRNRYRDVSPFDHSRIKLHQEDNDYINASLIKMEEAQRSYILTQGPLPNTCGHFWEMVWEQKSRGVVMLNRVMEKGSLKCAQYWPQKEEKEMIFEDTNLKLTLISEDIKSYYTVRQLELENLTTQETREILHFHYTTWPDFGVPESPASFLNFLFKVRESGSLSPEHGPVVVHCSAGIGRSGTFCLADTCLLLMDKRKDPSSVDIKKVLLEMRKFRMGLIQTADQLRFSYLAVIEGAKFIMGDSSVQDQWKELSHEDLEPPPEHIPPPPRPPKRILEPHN
UniProt O60502, whole entry: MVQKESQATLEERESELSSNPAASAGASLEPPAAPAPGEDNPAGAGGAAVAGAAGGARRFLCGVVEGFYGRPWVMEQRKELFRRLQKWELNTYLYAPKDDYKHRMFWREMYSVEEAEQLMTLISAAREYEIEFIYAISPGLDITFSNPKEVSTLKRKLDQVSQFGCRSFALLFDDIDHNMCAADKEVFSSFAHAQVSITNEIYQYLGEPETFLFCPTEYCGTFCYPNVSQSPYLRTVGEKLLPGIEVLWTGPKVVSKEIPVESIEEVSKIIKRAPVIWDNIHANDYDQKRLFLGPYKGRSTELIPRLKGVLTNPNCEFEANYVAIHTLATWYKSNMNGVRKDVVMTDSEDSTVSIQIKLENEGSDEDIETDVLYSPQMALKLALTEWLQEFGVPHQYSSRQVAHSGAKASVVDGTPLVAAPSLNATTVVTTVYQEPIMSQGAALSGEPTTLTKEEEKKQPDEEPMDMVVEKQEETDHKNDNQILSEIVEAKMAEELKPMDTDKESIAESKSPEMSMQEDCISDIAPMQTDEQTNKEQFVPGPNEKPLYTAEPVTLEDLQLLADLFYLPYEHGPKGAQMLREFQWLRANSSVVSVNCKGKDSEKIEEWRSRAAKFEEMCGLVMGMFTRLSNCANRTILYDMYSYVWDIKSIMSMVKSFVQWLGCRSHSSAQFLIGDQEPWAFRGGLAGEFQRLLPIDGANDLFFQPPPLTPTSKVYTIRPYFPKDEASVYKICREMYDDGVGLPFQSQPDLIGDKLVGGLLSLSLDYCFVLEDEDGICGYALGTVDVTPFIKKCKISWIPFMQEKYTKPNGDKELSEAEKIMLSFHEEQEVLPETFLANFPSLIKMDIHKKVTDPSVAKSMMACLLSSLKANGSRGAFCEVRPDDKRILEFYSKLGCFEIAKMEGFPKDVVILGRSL
UniProt Q66478, 863-1012 limits assumed: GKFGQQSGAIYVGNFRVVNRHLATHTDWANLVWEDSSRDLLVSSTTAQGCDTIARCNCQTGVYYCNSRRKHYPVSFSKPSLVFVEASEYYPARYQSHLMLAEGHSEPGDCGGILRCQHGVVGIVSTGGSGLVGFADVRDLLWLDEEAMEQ
UniProt P0C7A3, whole entry: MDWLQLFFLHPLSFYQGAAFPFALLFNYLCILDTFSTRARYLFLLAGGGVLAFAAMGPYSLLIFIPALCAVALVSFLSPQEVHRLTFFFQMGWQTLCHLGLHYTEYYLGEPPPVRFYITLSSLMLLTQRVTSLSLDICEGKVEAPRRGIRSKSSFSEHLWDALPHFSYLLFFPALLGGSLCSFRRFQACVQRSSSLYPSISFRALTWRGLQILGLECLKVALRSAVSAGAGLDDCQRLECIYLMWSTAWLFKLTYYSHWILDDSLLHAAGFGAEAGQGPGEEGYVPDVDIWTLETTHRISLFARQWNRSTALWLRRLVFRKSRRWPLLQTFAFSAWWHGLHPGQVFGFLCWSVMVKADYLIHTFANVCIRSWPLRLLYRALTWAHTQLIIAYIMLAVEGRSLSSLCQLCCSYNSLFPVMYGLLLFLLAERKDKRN
UniProt O60704, 25-377 limits assumed: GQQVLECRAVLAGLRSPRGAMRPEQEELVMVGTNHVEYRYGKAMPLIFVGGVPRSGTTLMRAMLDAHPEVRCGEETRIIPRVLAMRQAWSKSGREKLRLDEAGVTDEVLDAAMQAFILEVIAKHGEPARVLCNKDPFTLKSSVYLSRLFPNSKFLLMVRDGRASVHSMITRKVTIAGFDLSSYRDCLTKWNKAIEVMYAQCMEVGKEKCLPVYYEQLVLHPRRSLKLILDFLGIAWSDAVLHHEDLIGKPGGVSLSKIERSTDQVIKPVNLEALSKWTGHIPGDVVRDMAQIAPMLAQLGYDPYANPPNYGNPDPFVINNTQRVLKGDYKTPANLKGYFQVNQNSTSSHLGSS
UniProt O15379, whole entry: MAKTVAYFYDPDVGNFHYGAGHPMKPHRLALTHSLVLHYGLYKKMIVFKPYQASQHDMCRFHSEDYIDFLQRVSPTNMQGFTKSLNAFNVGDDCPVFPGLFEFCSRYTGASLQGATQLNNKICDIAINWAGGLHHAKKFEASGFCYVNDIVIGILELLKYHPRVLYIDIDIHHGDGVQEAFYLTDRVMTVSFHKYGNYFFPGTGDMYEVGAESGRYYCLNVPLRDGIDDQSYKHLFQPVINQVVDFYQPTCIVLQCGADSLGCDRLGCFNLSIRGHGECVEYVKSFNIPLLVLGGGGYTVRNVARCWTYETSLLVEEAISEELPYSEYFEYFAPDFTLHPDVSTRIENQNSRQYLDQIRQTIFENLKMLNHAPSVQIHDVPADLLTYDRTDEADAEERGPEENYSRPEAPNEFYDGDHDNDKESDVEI
UniProt P30419, whole entry: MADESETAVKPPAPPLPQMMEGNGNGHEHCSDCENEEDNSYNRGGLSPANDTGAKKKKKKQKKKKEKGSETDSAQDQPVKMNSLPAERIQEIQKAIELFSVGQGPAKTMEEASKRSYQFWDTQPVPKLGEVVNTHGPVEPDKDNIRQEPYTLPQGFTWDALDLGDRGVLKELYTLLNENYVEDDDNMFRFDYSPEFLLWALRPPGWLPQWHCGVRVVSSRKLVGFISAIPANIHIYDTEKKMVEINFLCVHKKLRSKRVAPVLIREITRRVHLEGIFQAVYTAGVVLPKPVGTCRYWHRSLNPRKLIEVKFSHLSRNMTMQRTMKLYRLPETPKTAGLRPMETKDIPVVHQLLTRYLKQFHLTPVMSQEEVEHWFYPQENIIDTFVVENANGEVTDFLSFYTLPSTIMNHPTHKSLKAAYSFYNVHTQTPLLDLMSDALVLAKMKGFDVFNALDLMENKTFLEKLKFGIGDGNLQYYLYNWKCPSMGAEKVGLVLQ
UniProt Q16539, whole entry: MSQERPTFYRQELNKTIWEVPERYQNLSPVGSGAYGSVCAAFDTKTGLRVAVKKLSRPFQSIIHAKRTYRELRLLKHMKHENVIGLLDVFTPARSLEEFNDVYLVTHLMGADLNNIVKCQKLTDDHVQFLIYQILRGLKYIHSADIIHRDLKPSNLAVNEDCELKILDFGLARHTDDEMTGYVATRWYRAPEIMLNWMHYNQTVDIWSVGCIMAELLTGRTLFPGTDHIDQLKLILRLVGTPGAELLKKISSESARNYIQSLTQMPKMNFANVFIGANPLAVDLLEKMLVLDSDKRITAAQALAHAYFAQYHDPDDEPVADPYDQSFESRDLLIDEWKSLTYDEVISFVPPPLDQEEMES

SMILES = N#Cc1c(-c2ccc(Cl)cc2Cl)n(-c2nc(-c3ccc(Cl)cc3)c3c(NC(=O)c4ccccc4)nnc-3[nH]2)[nH]c1=O; tested on = SK-MEL-28; test = SRB; conditions = 10 µM; measurement = cell growth; result = 53.8%
SMILES = CC(=O)N[C@@H](CC(=O)O)C(=O)N[C@H](C(=O)N[C@@H](C)C(=O)N[C@@H](CC(=O)O)C(=O)N[C@@H](C)C(=O)N[C@@H](Cc1ccc(OP(=O)(O)O)cc1)C(=O)N[C@@H](C)C(=O)N[C@@H](C)C(N)=O)[C@@H](C)O; tested on = PTPN1; test = substrate, continuous UV; conditions = pH 7.4, multiply phosphorylated peptides apparent; measurement = Km; result = 35 ± 2 µM
SMILES = CC[C@H](C)[C@H](NC(=O)[C@H](CCCCN)NC(=O)[C@H](CC(=O)O)NC(=O)[C@H](CCCNC(=N)N)NC(=O)c1ccc(N=Nc2ccc(N(C)C)cc2)cc1)C(=O)NCC(=O)N[C@@H](Cc1ccccc1)C(=O)N[C@@H](CCCNC(=N)N)C(=O)NCC(=O)N[C@@H](CCCCN)C(=O)N[C@@H](Cc1ccccc1)C(=O)NCC(=O)N[C@@H](CCC(N)=O)C(=O)N[C@@H](CC(=O)O)C(=O)N[C@@H](CCC(=O)NCCNc1cccc2c(S(=O)(=O)O)cccc12)C(N)=O; tested on = Genome polyprotein, 2A protease (Enterovirus A71, UniProt Q66478); test = protease activity, substrate, FRET; system = enterovirus 71; conditions = pH 7.4, 30 °C; measurement = Km; result = 6.92 ± 1.11 µM
SMILES = CC(=O)N[C@@H](C)C(=O)N[C@H](C(=O)N[C@@H](C)C(=O)N[C@@H](CC(=O)O)C(=O)N[C@H](C(=O)N[C@@H](Cc1ccc(OP(=O)(O)O)cc1)C(=O)N[C@@H](C)C(=O)N[C@@H](C)C(N)=O)C(C)C)[C@@H](C)O; tested on = PTPN1; test = substrate, continuous UV; conditions = pH 7.4, multiply phosphorylated peptides apparent; measurement = Km; result = 12 ± 2 µM
SMILES = CC(=O)N[C@H]1[C@H](OC[C@H](NC(=O)[C@H](Cc2ccc(O)cc2)NC(=O)[C@@H]2CCCN2C(=O)[C@@H](NC(=O)[C@H](CO)NC(C)=O)C(C)C)C(=O)N[C@@H](CO)C(=O)N[C@@H](C)C(=O)N[C@@H](CCC(N)=O)C(=O)N[C@@H](CO)C(N)=O)O[C@H](CO)[C@@H](O)[C@@H]1O; tested on = OGA; test = substrate; conditions = pH 7.5, 37 °C, added: 4MU-GlcNAc 200 µM competition; measurement = Km; result = 4800 ± 300 µM
SMILES = CC(C)C[C@H](NC(=O)[C@H](Cc1ccccc1)NC(=O)[C@H](CN)NC(=O)[C@H](CO)NC(=O)CN)C(=O)N[C@@H](CO)C(=O)N1CCC[C@H]1C(=O)N[C@@H](CCC(=O)O)C(=O)N[C@@H](Cc1c[nH]cn1)C(=O)N[C@@H](CCC(N)=O)C(=O)NCCCCCC(=O)N[C@@H](CCCCNC(=O)CCCC[C@@H]1SC[C@@H]2NC(=O)N[C@@H]21)C(=O)NCC(=O)O; tested on = Membrane-bound ghrelin O-acyltransferase MBOAT4 (Mus musculus, UniProt P0C7A3); test = substrate; conditions = pH 7; measurement = Km; result = 33.9 ± 9.6 µM
SMILES = CC[C@H](C)[C@H](NC(=O)[C@H](CC(=O)O)NC(=O)[C@@H]1CCCN1C(=O)[C@H](Cc1ccc(O)cc1)NC(=O)[C@H](Cc1ccc(O)cc1)NC(=O)[C@H](Cc1ccc(O)cc1)NC(=O)[C@H](CC(=O)O)NC(=O)[C@@H](NC(=O)[C@@H](N)C(C)C)[C@@H](C)O)C(=O)O; tested on = Protein-tyrosine sulfotransferase 2 (Homo sapiens, UniProt O60704); test = substrate, LC-MS initial velocity; conditions = pH 7.5, 30 °C, reaction 1, added: saturating PAPS; measurement = Km; result = 19.3 µM
SMILES = CC(=O)N[C@@H](Cc1ccc(O)cc1)C(=O)N[C@@H](CC(=O)O)C(=O)N[C@@H](CCC(=O)O)C(=O)N[C@@H](CC(=O)O)C(=O)N[C@@H](Cc1ccccc1)C(=O)N[C@@H](Cc1ccc(OP(=O)(O)O)cc1)C(=O)N[C@@H](CC(=O)O)C(=O)N[C@@H](Cc1ccc(O)cc1)C(=O)N[C@@H](CCC(=O)O)C(=O)N[C@@H](Cc1ccccc1)C(N)=O; tested on = PTPN1; test = substrate; conditions = pH 7.4, catalytic domain; measurement = Km; result = 0.38 ± 0.02 µM
SMILES = CCOC(=O)c1c(-c2ccc(Cl)cc2Cl)n(-c2nc(-c3ccc(Cl)cc3)c3c(NC(=O)c4ccccc4)nnc-3[nH]2)[nH]c1=O; tested on = SK-MEL-5; test = SRB; conditions = 10 µM; measurement = cell growth; result = -98.6%
SMILES = CC(C)C[C@H](NC(=O)[C@@H](NC(=O)[C@H](CC(C)C)NC(=O)[C@H](CS)NC(=O)CNS(=O)(=O)c1cccc2c(N(C)C)cccc12)C(C)C)C(=O)O; tested on = geranylgeranyltransferase type-I (Rattus norvegicus, UniProt P53610+Q04631); test = substrate, fluorescence; conditions = 30 °C, added: SmgGDS-607 5 µM, GTP 30 µM and GGPP 10 µM; measurement = Km; result = 2.5 ± 1.6 µM
SMILES = C/C=C/C(=O)NCCCC[C@H](NC(=O)CNC(=O)[C@H](CC(C)C)NC(C)=O)C(=O)Nc1ccc2c(C)cc(=O)oc2c1; tested on = Histone deacetylase 3/Nuclear receptor corepressor 2 (HDAC3/NCoR2) (Homo sapiens, UniProt O15379+Q9Y618); test = substrate, fluorogenic trypsin-coupled; conditions = pH 7.4, 25 °C; measurement = Km; result = < 10 µM
SMILES = C=C(C)C(=O)Nc1ccc(-c2c(-c3ccc(Oc4nccc(C)n4)c(F)c3)c3c(N)ncnc3n2C)cc1; tested on = MFE-280; test = cell growth, CellTiter-Glo; conditions = 120 h; measurement = IC50; result = 419 nM
SMILES = CC(=O)N[C@@H](CCC(=O)O)C(=O)N[C@@H](CCC(=O)O)C(=O)N[C@@H](CC(=O)O)C(=O)N[C@@H](CC(N)=O)C(=O)N[C@@H](C)C(=O)N[C@@H](Cc1c[nH]c2ccccc12)C(=O)N[C@@H](Cc1ccc(OP(=O)(O)O)cc1)C(=O)N[C@@H](C)C(=O)N[C@@H](C)C(N)=O; tested on = PTPN1; test = substrate; conditions = pH 7.4, catalytic domain; measurement = Km; result = 1.3 ± 0.1 µM
SMILES = NCC(=O)N[C@@H](CO)C(=O)N[C@@H](CS)C(=O)N[C@@H](CS)C(=O)N[C@@H](CO)C(=O)N[C@@H](CS)C(=O)N1CCC[C@H]1C(=O)N[C@@H](CC(=O)O)C(=O)O; tested on = Glycylpeptide N-tetradecanoyltransferase 1 (NMT1, Homo sapiens, UniProt P30419); test = substrate; measurement = Km; result = 28.2 µM
SMILES = CC(=O)N[C@@H](CCCNC(=N)N)C(=O)N[C@H](C(=O)N[C@@H](CC(C)C)C(=O)N[C@@H](C)C(=O)N[C@@H](C)C(=O)N[C@@H](Cc1ccc(OP(=O)(O)O)cc1)C(=O)N[C@@H](CCC(=O)O)C(=O)N[C@@H](CCC(=O)O)C(=O)N[C@H](C(=O)N[C@@H](Cc1c[nH]cn1)C(N)=O)C(C)C)[C@@H](C)O; tested on = PTPN1; test = substrate, continuous UV; conditions = pH 7.4, multiply phosphorylated peptides apparent; measurement = Km; result = 43 ± 1 µM
SMILES = CC(=O)N[C@@H](C)C(=O)N[C@@H](C)C(=O)N[C@@H](Cc1ccc(OP(=O)(O)O)cc1)C(=O)N[C@@H](C)C(=O)N[C@@H](C)C(=O)N[C@@H](C)C(=O)N[C@@H](CC(=O)O)C(=O)N[C@@H](CC(=O)O)C(N)=O; tested on = PTPN1; test = substrate; conditions = pH 7.4, catalytic domain; measurement = Km; result = 3 ± 0.1 µM
SMILES = CC/C=C\C/C=C\CCC/C=C/C=C/C=C\CCCC(=O)O; tested on = DNA polymerase alpha catalytic subunit (Bos taurus, UniProt A0A3Q1MF00); test = enzyme activity, inhibitor; measurement = IC50; result = > 100000 nM
SMILES = CC[C@H](C)[C@H](NC(=O)[C@H](CCCNC(=N)N)NC(=O)[C@H](CCCCN)NC(=O)[C@H](CCCNC(=N)N)NC(=O)[C@H](C)NC(C)=O)C(=O)N[C@@H](Cc1ccc(OP(=O)(O)O)cc1)C(=O)N[C@@H](C)C(=O)N[C@@H](C)C(N)=O; tested on = PTPN1; test = substrate; conditions = pH 7.4, catalytic domain; measurement = Km; result = 166 ± 6 µM
SMILES = CC(=O)N[C@H]1[C@H](OC[C@H](NC(=O)[C@H](Cc2ccc(O)cc2)NC(=O)[C@@H]2CCCN2C(=O)[C@@H](NC(C)=O)C(C)C)C(=O)N[C@@H](CO)C(=O)N[C@@H](C)C(=O)N[C@@H](CCC(N)=O)C(N)=O)O[C@H](CO)[C@@H](O)[C@@H]1O; tested on = OGA; test = substrate; conditions = pH 7.5, 37 °C, added: 4MU-GlcNAc 200 µM competition; measurement = Km; result = 4100 ± 300 µM
SMILES = CC(=O)N[C@@H](CC(=O)O)C(=O)N[C@H](C(=O)N[C@@H](C)C(=O)N[C@@H](C)C(=O)N[C@H](C(=O)N[C@@H](Cc1ccc(OP(=O)(O)O)cc1)C(=O)N[C@@H](C)C(=O)N[C@@H](C)C(N)=O)C(C)C)[C@@H](C)O; tested on = PTPN1; test = substrate, continuous UV; conditions = pH 7.4, multiply phosphorylated peptides apparent; measurement = Km; result = 18 ± 0.14 µM
SMILES = CC(C)C[C@H](NC(=O)[C@H](C)NC(=O)[C@H](CCCNC(=N)N)NC(=O)[C@H](CCCNC(=N)N)NC(=O)[C@H](CCCNC(=N)N)NC(=O)[C@H](C)NC(=O)[C@H](CC(C)C)NC(=O)[C@H](CCCNC(=N)N)NC(=O)[C@H](CO)NC(=O)[C@H](CCCCN)NC(=O)[C@H](CO)NC(=O)Cn1cc(COC(=O)[C@]2(C)C=C(C(=O)OC(C)(C)C)C(=O)CC2)nn1)C(=O)O; tested on = Mitogen-activated protein kinase 14 (MAPK14, Homo sapiens, UniProt Q16539); test = enzyme activity, inhibitor, D-SENSOR; conditions = 0.01016 µM; measurement = normalized kinase activity; result = 0.963
SMILES = CC(=O)N[C@@H](C)C(=O)N[C@@H](C)C(=O)N[C@@H](Cc1ccc(OP(=O)(O)O)cc1)C(=O)N[C@@H](C)C(=O)N[C@@H](CC(=O)O)C(=O)N[C@@H](CC(=O)O)C(=O)N[C@@H](C)C(=O)N[C@@H](C)C(N)=O; tested on = PTPN1; test = substrate; conditions = pH 7.4, catalytic domain; measurement = Km; result = 2.2 ± 0.1 µM
SMILES = CC(=O)N[C@@H](CCCNC(=N)N)C(=O)N[C@H](C(=O)N[C@@H](CC(C)C)C(=O)N[C@@H](C)C(=O)N[C@@H](C)C(=O)N[C@@H](Cc1ccc(OP(=O)(O)O)cc1)C(=O)N[C@@H](CCCNC(=N)N)C(=O)N[C@@H](Cc1ccccc1)C(=O)N[C@@H](CCC(N)=O)C(=O)N[C@@H](CCCCN)C(N)=O)[C@@H](C)O; tested on = PTPN1; test = substrate, continuous UV; conditions = pH 7.4, multiply phosphorylated peptides apparent; measurement = Km; result = 165 ± 18 µM

Repeated from above:
SMILES = CC[C@H](C)[C@H](NC(=O)[C@H](CCCNC(=N)N)NC(=O)[C@H](CCCCN)NC(=O)[C@H](CCCNC(=N)N)NC(=O)[C@H](C)NC(C)=O)C(=O)N[C@@H](Cc1ccc(OP(=O)(O)O)cc1)C(=O)N[C@@H](C)C(=O)N[C@@H](C)C(N)=O; tested on = PTPN1; test = substrate; conditions = pH 7.4, catalytic domain; measurement = Km; result = 166 ± 6 µM
SMILES = CC(=O)N[C@H]1[C@H](OC[C@H](NC(=O)[C@H](Cc2ccc(O)cc2)NC(=O)[C@@H]2CCCN2C(=O)[C@@H](NC(C)=O)C(C)C)C(=O)N[C@@H](CO)C(=O)N[C@@H](C)C(=O)N[C@@H](CCC(N)=O)C(N)=O)O[C@H](CO)[C@@H](O)[C@@H]1O; tested on = OGA; test = substrate; conditions = pH 7.5, 37 °C, added: 4MU-GlcNAc 200 µM competition; measurement = Km; result = 4100 ± 300 µM
SMILES = CC(=O)N[C@@H](CC(=O)O)C(=O)N[C@H](C(=O)N[C@@H](C)C(=O)N[C@@H](C)C(=O)N[C@H](C(=O)N[C@@H](Cc1ccc(OP(=O)(O)O)cc1)C(=O)N[C@@H](C)C(=O)N[C@@H](C)C(N)=O)C(C)C)[C@@H](C)O; tested on = PTPN1; test = substrate, continuous UV; conditions = pH 7.4, multiply phosphorylated peptides apparent; measurement = Km; result = 18 ± 0.14 µM
SMILES = CC(C)C[C@H](NC(=O)[C@H](C)NC(=O)[C@H](CCCNC(=N)N)NC(=O)[C@H](CCCNC(=N)N)NC(=O)[C@H](CCCNC(=N)N)NC(=O)[C@H](C)NC(=O)[C@H](CC(C)C)NC(=O)[C@H](CCCNC(=N)N)NC(=O)[C@H](CO)NC(=O)[C@H](CCCCN)NC(=O)[C@H](CO)NC(=O)Cn1cc(COC(=O)[C@]2(C)C=C(C(=O)OC(C)(C)C)C(=O)CC2)nn1)C(=O)O; tested on = Mitogen-activated protein kinase 14 (MAPK14, Homo sapiens, UniProt Q16539); test = enzyme activity, inhibitor, D-SENSOR; conditions = 0.01016 µM; measurement = normalized kinase activity; result = 0.963
